Experimental data from different studies.
Lines come from different studies, so protocols differ.
Target: Phosphatidylinositol 4-phosphate 5-kinase type-1 alpha (PIP5K1A, Homo sapiens, UniProt Q99755)

SMILES | observed | mode | method | tested at | relative to | measurement | result
Cc1ccc(-c2c(/C=C(\C#N)C(=O)NC(C)C)n(CCCO)c3ncnc(N)c23)cc1 | cell-free assay |  | competition with immobilised ligand | 1 µM |  | remaining binding | 100%
O=C(Cc1ccc(OCc2ccccc2)cc1)NC1(C(=O)O)CCN(C(=O)c2ccc(-c3cccc(Cl)c3)cc2)CC1 | enzyme activity | inhibitor |  | 10 µM |  | activity vs control | 113%
CNC(=O)C1CCN(c2cc(C)c(F)cc2NC(=O)c2ccc(-c3cc(O)ccc3C)c(C)c2)CC1 | binding |  | competition with immobilised ligand | 1 µM |  | remaining binding | 97%
C=CC(=O)N1CCCC(n2c(=O)c3ncccc3n(Cc3ccc(Oc4ccccc4)cc3)c2=O)C1 (stereo not drawn) | cell-free assay |  | competition with immobilised ligand | 1 µM |  | remaining binding | 100%
COc1cc(Nc2nccc(-c3cnn4nc(OC)ccc34)n2)cc(C(F)(F)F)c1 | binding |  | competition with immobilised ligand | 1 µM |  | remaining binding | 100%
COc1c(Cl)cccc1Nc1c(-c2ccncc2C#C[C@@]2(C)CCCN2C(=O)/C=C/CN(C)C)[nH]c2c1C(=O)NCC2 | cell-free assay |  | competition with immobilised ligand | 3 µM |  | remaining binding | 36%
C[C@]1(O)CCCN(c2nc(Nc3ccc(S(=O)(=O)N[C@H]4CC[C@H](CN5CCN(c6ccc(C7CCC(=O)NC7=O)cc6F)CC5)CC4)cc3)ncc2C(F)(F)F)C1 (stereo partly drawn) | binding |  | competition with immobilised ligand | 1 µM |  | remaining binding | 4.5%
Nc1ncc2c(n1)-c1c([nH]c3ccc(C4=CCOCC4)cc13)CCC2 | binding |  | competition with immobilised ligand | 1 µM |  | remaining binding | 90%
CNC(=O)C[C@H](Cc1ccc(C#N)cc1)NC(=O)c1cc(-c2ccc(CN[C@H](C)c3ccc(C)cc3)o2)ccc1Cl | enzyme activity | inhibitor |  | 1 µM |  | activity vs control | 103%
COc1cc(Nc2nc(C)cc(-c3cnn4nc(OC)ccc34)n2)cc(C(F)(F)F)c1 |  | inhibitor |  | 1 µM | control | remaining activity | 81%
CN1CC[C@@H](COc2cnc(C#N)cc2-c2ccn3nc(NC(=O)C4CC4)cc3c2)C1 | enzyme activity | inhibitor |  | 1 µM |  | inhibition | 2%
Cc1cnc2nc1Nc1cccc(c1)COC/C=C/COCc1cc(ccc1OCCN1CCOCC1)N2 | binding |  |  | 0.1 µM |  | remaining binding | 65%
CC(C)=CC1OC(C)(C)C2C=C3C(=O)C(Cl)=CC(O)C3C3C(O)C4OC4C(=O)C132 (stereo not drawn) | cell-free assay |  | competition with immobilised ligand | 10 µM |  | remaining binding | 100%
Cc1nc2c(F)cc(-c3nc(Nc4ccc(CNC(=O)CCCCCCC(=O)NO)cc4)ncc3F)cc2n1C(C)C | enzyme activity | inhibitor |  | 1 µM |  | inhibition | 0%
C=CC(=O)N1Cc2nc(-c3cc(-c4cc(Cl)cnc4Cl)c(F)cc3F)n(-c3ccncn3)c2C1 | cell-free assay | inhibitor |  | 1 µM |  | inhibition | 1.9%
CNC1C[S+]2CC[S+]3CC[S+](C1)[Ru-4]321([N]=C=S)[n]2c3ccc(OC)cc3c3c4c(c5cc(F)c[n+]1c5c32)C(=O)NC4=O (stereo not drawn) |  |  | KinomeScan | 0.1 µM | untreated | remaining binding | 43%
C=CC(=O)N1CCc2ccc(-n3c(=O)ccc4cnc5ccc(-c6cnn(C)c6)cc5c43)cc21 |  |  | KINOMEscan | 1 µM | DMSO control | remaining binding | 82%
CCN1CCN(Cc2ccc(C(=O)Nc3ccc(C)c(NCc4cnc5[nH]ccc5c4OC)c3)cc2C(F)(F)F)CC1 | binding |  | competition with immobilised ligand | 1 µM |  | remaining binding | 100%

Excerpt of the above:
SMILES | observed | mode | method | tested at | relative to | measurement | result
C=CC(=O)N1CCc2ccc(-n3c(=O)ccc4cnc5ccc(-c6cnn(C)c6)cc5c43)cc21 |  |  | KINOMEscan | 1 µM | DMSO control | remaining binding | 82%
